Results of several laboratories.
Numbered parts are unrelated; each lists some results of a single study.

Block 1 — method: RNA Bind-n-Seq; molecule type: RNA; sample: in vitro; tested at: 200 nM; notes: whole 134-nt RNA, ends assumed; added: 150 mM KCl; reference: input library; reading: higher = stronger binding; measurement: log2 enrichment
Target: Fragile X messenger ribonucleoprotein 1, C-terminal low-complexity region (Fmr1, Mus musculus, UniProt P35922)
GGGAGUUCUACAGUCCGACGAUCGCAGGAAGUAAAAACAAAUGGAAAUGCUUCGGAUAGUGGCGGGGGUGGGGGUUGCUAAGGAAAGGGUGGGAUGGGAGUGGGUAAAGAGUUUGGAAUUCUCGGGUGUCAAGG: -0.0409
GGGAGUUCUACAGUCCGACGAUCUAACUUUAGAGGACGAUCUGAUGGAUAUGGCAGUGGACGUGGAUUUGGGGAUGGCUAUAAUGGGUAUGGAGGAGGACCUGGAGGUGGCAAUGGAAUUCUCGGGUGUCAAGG: 0.466
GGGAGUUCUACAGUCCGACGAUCCACAGACAACACGCACCCACACAGACACUGAGGGAAGGGGUUGGGAUGGGGACAGGGUGCACAGCAGGGCGGGGUAGGACCCCAGCCCCUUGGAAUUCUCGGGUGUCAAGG: 1.28
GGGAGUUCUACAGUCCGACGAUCGCAGGAAGUAAAUACAAAUGGAAAUGCUUCGGAUAGUGGCAGGGGUGGGGGUUGCUAAGGAAAGGGUGGGAUGGGAGUGGGUAAAGAGUUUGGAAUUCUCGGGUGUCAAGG: 0.462
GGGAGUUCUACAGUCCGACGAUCUGGCAGAGAAAUUGCAGCUGCAGGAGCAGCUCCAGGCAGAAACCGAGCUGUGUGCCGAGGCUGAGGAGCUCCGGGCCCGCCUGACCGCCAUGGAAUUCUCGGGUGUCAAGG: -0.45
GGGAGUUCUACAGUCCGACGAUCUGUGUGACUUCCUUGGAGAGAAGAUUGCAUCUGUUUUGGGUAUCAGCACCCCAAAGUACCAAUAUGCCAUUGAUGAAUAUUAUCGGAUGAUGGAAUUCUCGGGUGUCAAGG: -0.283
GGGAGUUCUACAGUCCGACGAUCCCUGUGCUACACAUCGUAUGUACCGAAUCGGGAAAAAGGGAAAAAAAGGGAAAAAAAGGGAAAGUAUUAUGUUACGCCGUUCGGAUCUGCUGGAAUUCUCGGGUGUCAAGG: -0.74
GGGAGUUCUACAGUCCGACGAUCUCAAGUCCUGUGCUACACAUCGUAUGUACCGAAUCGGGGCCGGGCCGGGGCCGGGAAAGUAUUAUGUUACGCCGUUCGGAUCUGCACUUCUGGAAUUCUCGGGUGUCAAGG: 0.074
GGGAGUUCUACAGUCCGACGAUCGAGCAAAGAGCCAUUCAGCUUCAGUCUUUACAUACCAUGAAUAAAACAUUAAAACAUCAUAUGGAGAAGUUUACAUGGUGAUUGUUCACCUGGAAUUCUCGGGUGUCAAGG: -0.326
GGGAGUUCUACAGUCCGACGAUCGUCCUGUGCUACACAUCGUAUGUACCGAAUCGGGAAAAAGGAAAAAGGGGAAAAAGGGAAAGUAUUAUGUUACGCCGUUCGGAUCUGCACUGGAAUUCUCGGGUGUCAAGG: -0.398

Block 2 — method: competition protein-binding microarray; molecule type: double-stranded DNA, one strand shown; sample: in vitro; tested at: 2 µM; added: Cbf1 competitor, 0.05 µM; reading: higher = stronger binding; measurement: fluorescence intensity
Target: Phosphate system positive regulatory protein PHO4, full length, GST-tagged (PHO4, Saccharomyces cerevisiae, UniProt P07270, residues 1-312)
Notes: whole 60-bp probe, lowest competitor level
Construct (chain): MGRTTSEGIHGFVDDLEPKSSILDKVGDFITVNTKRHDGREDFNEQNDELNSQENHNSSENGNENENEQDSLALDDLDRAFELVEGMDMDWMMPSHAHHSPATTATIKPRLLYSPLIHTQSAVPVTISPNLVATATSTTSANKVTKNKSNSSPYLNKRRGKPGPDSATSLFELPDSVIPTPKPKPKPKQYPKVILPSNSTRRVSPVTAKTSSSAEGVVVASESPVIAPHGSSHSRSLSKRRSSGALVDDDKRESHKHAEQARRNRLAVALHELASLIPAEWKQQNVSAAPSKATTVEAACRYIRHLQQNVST
CGTCCTAGTGATTGCTTAGTGGGTGCCATGAGGAAGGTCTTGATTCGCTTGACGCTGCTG: 6290 a.u.
TGCGCAACAACTTGTCACATCACTTTATGTCTAGAAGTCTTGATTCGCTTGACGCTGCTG: 3710 a.u.
CAATCTTATCATTGCCACGTGCAAAAGCAACATCTTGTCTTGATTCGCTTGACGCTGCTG: 18400 a.u.
ACTACAGACAAAAAACCCGTGGCCGACCGAACCGAAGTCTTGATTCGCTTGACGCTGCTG: 10700 a.u.
TCCTTGTTGACTTACCACATGTGTGGCCGCCTTTTAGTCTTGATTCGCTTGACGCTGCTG: 9700 a.u.
GGTTTCTTATCAAGTGGCGTGCCAGGGCATCTACCAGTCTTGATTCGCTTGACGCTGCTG: 6860 a.u.
GGTACTCGCTGTTTGCACGTGGCAAAGACCCCATTTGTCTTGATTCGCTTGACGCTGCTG: 16600 a.u.
TACCCGGATACTTATCATGTTATGGTCTTTAATCAAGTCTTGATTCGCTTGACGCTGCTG: 4320 a.u.
AAATTACTAAGTTGCAATGTGGGTGACGCCGTATGAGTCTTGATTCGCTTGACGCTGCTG: 5870 a.u.
TCTGGCTTGCGCGGCCTCGTGCCAGTAAGTAGAAAAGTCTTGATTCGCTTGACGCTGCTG: 11500 a.u.
AAGAAACATACCCATCACGTGACGGCAAGAATGTTAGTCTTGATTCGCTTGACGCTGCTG: 14500 a.u.
ATAGCTCAAGTACTGTTCGTGGGTACCTTAAGCCTGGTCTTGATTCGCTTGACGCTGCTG: 4540 a.u.
TTGGTGAGCATTACCTACGTGTTGGGCACTACAACAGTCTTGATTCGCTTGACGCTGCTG: 5210 a.u.
TAGGTTTTATCCTGGCACGCTGTCTAGCTTTCAAACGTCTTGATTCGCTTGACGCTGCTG: 7360 a.u.
CTTTCCCGATCTTGGTCTGTGGGTGTAGCACATTTGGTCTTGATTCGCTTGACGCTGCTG: 4960 a.u.
TTCTCATAGAGAATCCACGTGTTGGTCTTTTGGATTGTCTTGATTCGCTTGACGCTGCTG: 14900 a.u.
AGCGCATCCCAGACACTCGTGTATCTAAATCCCAGTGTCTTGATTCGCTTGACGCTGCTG: 8230 a.u.
AAAGCGGTAATTTGCAGTGTGGGTGCAGATATCTATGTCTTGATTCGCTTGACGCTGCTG: 5470 a.u.

Block 3 — method: universal PBM; molecule type: double-stranded DNA, one strand shown; sample: in vitro; tested at: 600 nM; reading: higher = stronger binding; measurement: E-score
Target: Sal-like protein 4, full length isoform A (SALL4, Homo sapiens, UniProt Q9UJQ4, residues 1-1053)
Sequence of UniProt Q9UJQ4 (whole entry, looked up): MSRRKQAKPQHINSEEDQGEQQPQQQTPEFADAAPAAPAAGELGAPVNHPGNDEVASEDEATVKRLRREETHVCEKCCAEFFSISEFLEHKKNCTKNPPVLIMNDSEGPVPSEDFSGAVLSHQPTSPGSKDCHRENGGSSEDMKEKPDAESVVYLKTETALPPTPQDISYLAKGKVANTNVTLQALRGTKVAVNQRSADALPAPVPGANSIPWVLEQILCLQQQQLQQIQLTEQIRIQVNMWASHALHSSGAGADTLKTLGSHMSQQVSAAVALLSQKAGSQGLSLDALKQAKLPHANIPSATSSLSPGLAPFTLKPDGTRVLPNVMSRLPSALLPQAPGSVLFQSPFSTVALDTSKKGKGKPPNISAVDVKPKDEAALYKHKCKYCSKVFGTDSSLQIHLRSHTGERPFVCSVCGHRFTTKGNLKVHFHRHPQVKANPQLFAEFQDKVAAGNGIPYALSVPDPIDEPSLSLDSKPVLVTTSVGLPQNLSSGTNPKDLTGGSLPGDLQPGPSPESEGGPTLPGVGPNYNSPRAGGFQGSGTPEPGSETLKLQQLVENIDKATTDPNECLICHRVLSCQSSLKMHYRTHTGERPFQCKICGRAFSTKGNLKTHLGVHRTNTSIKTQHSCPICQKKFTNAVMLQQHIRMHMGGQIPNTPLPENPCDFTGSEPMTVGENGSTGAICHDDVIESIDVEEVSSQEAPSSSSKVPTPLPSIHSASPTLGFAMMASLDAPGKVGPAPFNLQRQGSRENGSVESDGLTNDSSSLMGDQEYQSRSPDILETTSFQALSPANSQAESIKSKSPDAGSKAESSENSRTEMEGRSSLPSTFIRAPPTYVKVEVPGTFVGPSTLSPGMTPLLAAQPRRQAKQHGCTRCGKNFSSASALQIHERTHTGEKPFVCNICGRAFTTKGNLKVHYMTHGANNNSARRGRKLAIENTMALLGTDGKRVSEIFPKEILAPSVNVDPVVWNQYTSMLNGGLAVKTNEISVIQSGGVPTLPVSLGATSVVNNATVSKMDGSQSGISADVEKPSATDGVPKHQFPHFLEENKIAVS
Notes: 8-mer, flanks averaged, mean of replicates
GGAGAACA: 0.00413
AAAAAGAG: 0.0899
ACGACAAG: -0.0584
AGTGGTCG: -0.18
TCGTATCA: 0.109
CACGTGAA: 0.0357
ATGACAGG: -0.0298
AGTATTGA: 0.233
CGTGGTTC: -0.181
CTGAGCTC: -0.126
AGCGGGAT: -0.211
ACCCCGCA: -0.277
GAAACCCC: -0.292
GCCTTGAC: -0.0851
CGATACGC: -0.0895
TACTTAAA: 0.211
CGGCAAAA: -0.0153
CTCGCGCA: -0.0565
AATTAGAC: 0.31
ACTCGCGC: -0.169
AAGTAAAG: 0.187
GATACCGA: -0.0804
ATTATAGC: 0.21
AGCTCATG: -0.0644
ATGCGCGG: -0.286

Block 4 — method: RNA Bind-n-Seq; molecule type: RNA; sample: in vitro; tested at: 365 nM; reference: no-protein control; reading: higher = stronger binding; measurement: RBNS enrichment (R)
Target: RNA binding protein fox-1 homolog 2, RRM domain, GST-SBP tag (RBFOX2, Homo sapiens, UniProt O43251-10, residues 100-194)
Notes: natural RNA segment, single round, ends assumed
Target sequence (chain): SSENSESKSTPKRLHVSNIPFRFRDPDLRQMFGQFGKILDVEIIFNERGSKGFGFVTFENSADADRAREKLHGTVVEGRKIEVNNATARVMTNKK
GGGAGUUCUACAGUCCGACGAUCUCCUGGCCCUGCGUUCUUAAUAUUGGGCUAUGGAGAGAUCCUCCUUUACCCUCUUGAAAUUUCUUAGCCAGCAACUUGUUCUGCAGGGGCCCACUGAAGCAGAAGGUUUUUGGAAUUCUCGGGUGCCAA: 1.71
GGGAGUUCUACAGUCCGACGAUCGGCAGUGCACCUAUUCUGUAGUUGCAGCUAUUGCCUGAAUGUACCUUAGCUGACAAAUUAUUGAUAAUUAAGAACUUGAAUUUGUGAUUCUUACUGCUAAUUAAAACCUAUGGAAUUCUCGGGUGCCAA: 0.911
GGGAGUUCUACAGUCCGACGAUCACAGUUCAGGGGAUCUCAGCUAACUCUAGUGGAAGUGAUACAAAGCAAGCUUAAAUUACAGAAGCAACUAUCCUGUCGAAAUGUCGUAAUACAGUCCAGCUGAAAGUAGGUGGAAUUCUCGGGUGCCAA: 0.379
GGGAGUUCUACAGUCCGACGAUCACUCAGAGGGGGUUGGGUUUGGGGACAUAAAGCCUCUGACUCAAACUCCUCCCUUUUAUCUUCUAGCCACAGUUCUAAGACCCAAAGUGGGGGGUGGACACAGAAGUCCCUGGAAUUCUCGGGUGCCAA: 0.247
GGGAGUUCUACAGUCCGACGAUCGCCUCUCUAGAGCCCCCAAAGUCAGGCAGCAGCUGGAGUAGUUACAUUGUCAUCAUCUUUUUUUUUGAGACAGUUUCGCUCUGUUGCCCAGGCUGGAGUGCAGUGGUGUGUGGAAUUCUCGGGUGCCAA: 0.681
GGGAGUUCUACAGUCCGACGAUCCACAGCAUUCAGGCCACUUGGGGUCUAGACCAUGGUGGUGCCAGCCUGGGGGGGGCAGUGGCCCUCAGCUCUGCCCGCUGGAGCGGUUGAGUGCAGAAGGGUGCGCCUCUUGGAAUUCUCGGGUGCCAA: 0.822
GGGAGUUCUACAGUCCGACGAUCGAACUGUAUUAGUGUUGUACCAGCCUAUUAACCUCUUGUCUGUGCACAGCUUCAAAUGUUACCGUCUAGUUAGAUUUUUAUUUAAAAUAUGAAAAACUGCUUUUCCCAAGUGGAAUUCUCGGGUGCCAA: 0.428
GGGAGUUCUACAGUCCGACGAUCAACAUGCUACAGUAGCUAAGAAGUAUUAAAACUAUAUACAUCCAUAUAAAGAUGAAAUAUGAACUAUCUCAUUAGAAGUCAUAGUUGACCACAGACAUGUUAUUCUUCUGUGGAAUUCUCGGGUGCCAA: 0.259
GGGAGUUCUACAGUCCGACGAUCUUUCCUGUGACUUUAAGAGCAUCUGAUGUUCUGUUCUCUUCUCCCACUACGCAACCCACUGCCCUGCCCUGCCCUGCCCUGGCGGGGACUCUGGUUCCCUCCUUGCCUUCUGGAAUUCUCGGGUGCCAA: 1.64
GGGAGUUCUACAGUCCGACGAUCUGUGGCUGAGGCUGUCCCCAGAGAGGAUGGCAGCAGGUAUUGGGUCCUCAGCCUUCUGGCGGGAGCCCUGAGGCUGCGGACAAAGCCCUUUCAUCUGAGGACUUUCAUCUUGGAAUUCUCGGGUGCCAA: 0.135
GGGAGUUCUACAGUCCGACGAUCUCUCUUCUCUCUUUGGUGUUCAUAGAGACAUUUCCAAUGGCAUUGCUUGAUUCAAAACCAAGGAAACCAGAACCAUUGAUCUUCUAUCUCUGUGAUUGCUAAGCAGUAGCUGGAAUUCUCGGGUGCCAA: 0.284
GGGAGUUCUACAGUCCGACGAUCUGCGAAUCUCAGAGCAGGAGAAGUUGCAGCUUACUGAUCCCUCAGUGCUCACAGUACUCAUGUGGGGCAGCCACACUAACUGCAUUAGCAGUGUGGUUACUUCUUUCUUCUGGAAUUCUCGGGUGCCAA: 0.369

Some of these lines once more (block 2):
CAATCTTATCATTGCCACGTGCAAAAGCAACATCTTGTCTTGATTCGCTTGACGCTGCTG: 18400 a.u.
ACTACAGACAAAAAACCCGTGGCCGACCGAACCGAAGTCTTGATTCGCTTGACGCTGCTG: 10700 a.u.
TCCTTGTTGACTTACCACATGTGTGGCCGCCTTTTAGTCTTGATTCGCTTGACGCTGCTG: 9700 a.u.
GGTTTCTTATCAAGTGGCGTGCCAGGGCATCTACCAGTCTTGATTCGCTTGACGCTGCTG: 6860 a.u.
GGTACTCGCTGTTTGCACGTGGCAAAGACCCCATTTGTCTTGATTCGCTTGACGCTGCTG: 16600 a.u.
TACCCGGATACTTATCATGTTATGGTCTTTAATCAAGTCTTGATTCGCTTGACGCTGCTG: 4320 a.u.
AAATTACTAAGTTGCAATGTGGGTGACGCCGTATGAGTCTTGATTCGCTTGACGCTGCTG: 5870 a.u.
